Measurements pooled from the literature.
Each line is one published result; not all experiments were run side by side. Several values in a cell are separate wells, animals, samples, runs or records. Numbers after ± are the reported error.

CNS(=O)(=O)Nc1nccc(Cc2c(C)c3ccc(Oc4ncccc4F)cc3oc2=O)c1F has an IC50 of 307 nM (NCI-H1693; cell viability; 7 days).
Under “log2 fold change”, COC1CN([C@H]2CC[C@H]([C@@]3(C)Oc4c(Cl)cc(C(=O)NCc5c(SC)cc(C)[nH]c5=O)c(C)c4O3)CC2)C1 is recorded as 2.3 (RNA-seq, refers to: CFAP43; human, whole blood; dose not given, 24 h; relative to: pretreatment baseline).
Under “nicked circular DNA”, Cc1c(C)c2cccnc2c2ncccc12.O=[N+]([O-])[O-].O=c1c(C=NN=C([S-])Nc2ccccc2)coc2ccccc12.[Cu+2] is recorded as 100% (supercoiled pUC19 DNA; oxidative DNA cleavage; concentration not given, under nitrogen, added: ascorbic acid).
With CCN(CC)CC(=O)Nc1cccc(-n2cc(-c3ccc4ccc(-c5cn(-c6cccc(NC(=O)CN(CC)CC)c6)nn5)cc4c3)nn2)c1 the fold regulation was 1.09 (RCC4; PCR angiogenesis array, refers to: PECAM1; 5 x IC50, 4 h, normoxia; relative to: untreated).
CN1CCCNC(=O)c2cccc(c2)C(=O)NCCCN(C)CCCNc2cccc3c2C(=O)c2cccc(c2C3=O)NCCC1 — result for “log2 fold change”: 1.16 (SAS; RNA-Seq, refers to: TBC1D30 mRNA; 1 µM, 6 h; relative to: untreated cells).
Cc1ncsc1-c1ccc(C(C)NC(=O)C2CC(O)CN2C(=O)C(NC(=O)CCCCCCCCCCN2CCCC(Nc3ncc(Cl)c(Nc4ccccc4S(=O)(=O)C(C)C)n3)C2)C(C)(C)C)cc1 (stereo not drawn): “log2 fold change” -1.22 (22Rv1; RNA-seq, refers to: ZNF283 mRNA; concentration not given; relative to: DMSO).
For Nc1nc(-c2ccccc2)nc2[nH]nc(Nc3ccc(F)c(F)c3F)c12, the IC50 was 10 nM (coxsackievirus B3; viral cytopathic effect; HeLa).
CN1CCC[C@]1(C)/C=C/S(=O)(=O)NC(=O)Nc1c2c(cc3c1CCC3)CCC2 gave an IL-1β inhibition of 98.9% (human, whole blood ex vivo; 250 mg single dose, 24 h, single ascending dose, added: LPS and ATP).
C=CC(=O)N1[C@H](c2ccc3c(c2)OCO3)c2[nH]c3ccccc3c2C[C@@H]1C(=O)N1CCN(C)CC1 has a relative co-enrichment of 113% (human cyclin E1 N112C-3xFLAG:CDK2; co-IP with TMT proteomics, refers to: PCBP1; concentration not given, Q15365; relative to: wild type DMSO).
C=CC(=O)Nc1cccc(Cn2ncc3cnc(Nc4cnn(CCOC)c4)nc32)c1: “percent of control” 100% (PLK2 human; binding, KINOMEscan; 100 nM; lower = stronger binding).
The inhibition of Cc1cc(NC2CCN(C)CC2)ccc1-c1cc2c(N3CCC[C@H](C(=O)N4CCCC4)C3)ncnc2[nH]1 is reported as 10% (NCI-H2228; cell growth or viability, MTT; 0.04 µg/mL, 72 h).
With Cc1ncsc1-c1ccc(CNC(=O)[C@@H]2C[C@H](O)CN2C(=O)[C@@H](NC(=O)CN2CCN(C3CN(CCNC(=O)C[C@@H]4N=C(c5ccc(Cl)cc5)c5c(sc(C)c5C)-n5c(C)nnc54)C3)CC2)C(C)(C)C)cc1 the protein level was 178% and 162% and 174% (Spodoptera frugiperda; degrader, targeted LC-MS, refers to: BRD3; Sf9; 0.1 µM).
CC(C)c1ccc(N(C)c2ccc3c(c2)OCC[C@H]3CNc2cnccc2C(=O)O)cc1 has an IC50 of 3.51 nM (NCI-H2286; cell growth or viability, ATP luminescence; 7 days).
The remaining binding of Nc1ncc(-c2cc(-c3cnn(CC(F)(F)F)c3)ncc2F)nc1C(=O)NC1CNCC(F)C1 (stereo not drawn) is reported as 93% (NEK6; KINOMEscan; 1 µM; relative to: DMSO control).
With CC(=O)[O-].O.O.O.O.[Mn+2].[O-]c1ccc(Br)cc1C=NCCN1CCOCC1 the inhibition was 44.7% (hydroxyl radical scavenging; 200 µM).
For O=C(NCc1ccc(OC(F)(F)F)cc1)[C@H]1CCCN(c2ncnc3[nH]c(-c4ccc(N5CCOCC5)cc4)cc23)C1, the inhibition was 81.7% (NCI-H2228; cell growth or viability, MTT; 5 µg/mL, 72 h).
COc1ccc(C(=O)CCc2cc(C(CCc3ccc(O)cc3OC)c3ccc(O)cc3)c(O)cc2OC)cc1 (racemic) gave a 5-HEPE level of 124 ± 42 pg/mL (human blood; 10 µM, added: A23187).
With Cc1cc(N2CCCCC2)ccc1-c1cc2c(N3CCC[C@H](C(=O)NCc4ccc(OC(F)(F)F)cc4)C3)ncnc2[nH]1 the inhibition was 45.7% (NCI-H2228; cell growth or viability, MTT; 0.04 µg/mL, 72 h).
For COc1cc(O)ccc1CCC(c1ccc(O)cc1)c1cc2c(c(C)c1O)OC(c1ccc(O)cc1)CC2 (mixture of isomers), the 5-HEPE level was 107 ± 27 pg/mL (human blood; 1 µM, added: A23187).
Cc1n[nH]c(C)c1-c1cc2c(N3CCC[C@H](C(=O)NCc4ccc(OC(F)(F)F)cc4)C3)ncnc2[nH]1 gave an inhibition of 50.9% (NCI-H2228; cell growth or viability, MTT; 0.008 µg/mL, 72 h).
With C=C(NC(=O)c1csc(-c2nc3c(cc2O)-c2nc(cs2)C(=O)NC(C(C)O)C(=O)NC(=C(C)OC)c2nc(cs2)C(=O)NC2c4nc(cs4)C(=O)NC(COC(=O)c4c5c6c(cccc6n4O)COC(=O)C(OC4CC(C)(O)C(N(C)C)C(C)O4)C2OC5)c2nc-3cs2)n1)C(N)=O (stereo not drawn) the ED50 was 4.16 mg/kg (Streptococcus pneumoniae; ATCC 49619, immunocompromised mice, lung infection; 24 h, three times daily; colony counts).

Excerpt of the above:
For Nc1nc(-c2ccccc2)nc2[nH]nc(Nc3ccc(F)c(F)c3F)c12, the IC50 was 10 nM (coxsackievirus B3; viral cytopathic effect; HeLa).
With C=C(NC(=O)c1csc(-c2nc3c(cc2O)-c2nc(cs2)C(=O)NC(C(C)O)C(=O)NC(=C(C)OC)c2nc(cs2)C(=O)NC2c4nc(cs4)C(=O)NC(COC(=O)c4c5c6c(cccc6n4O)COC(=O)C(OC4CC(C)(O)C(N(C)C)C(C)O4)C2OC5)c2nc-3cs2)n1)C(N)=O (stereo not drawn) the ED50 was 4.16 mg/kg (Streptococcus pneumoniae; ATCC 49619, immunocompromised mice, lung infection; 24 h, three times daily; colony counts).
